Experimental data collected from several papers.
± marks the error that the study gave.

The mRNA level of `O=C(CCl)Sc1nnc(-c2n[nH]c(=O)c3ccccc23)o1` is reported as 0.98 ± 0.12 fold (HepG2; qRT-PCR, measured: caspase-3; IC50, 8 h; baseline: untreated).
`Nc1ccn([C@@H]2O[C@H](CO)[C@@H](O)[C@H]2F)c(=O)n1` gave a CC50 ratio of 2 to 10 fold (SNB-78; cytotoxicity, sulforhodamine B; 11 days; baseline: glucose medium over galactose medium).
For `Nc1c(C(=O)c2ccc(Cl)cc2)sc(S)c1-c1nc2ccccc2s1`, “maximum non-toxic concentration” read 80 µg/mL (HEp-2; cytotoxicity; 72 h).
`CNc1c(C)n(C)n(-c2ccccc2)c1=O` — result for mRNA level: “no effect” (HepaRG differentiated; measured: CYP2D6; 300 µM, 72 h, added: 2 mM metformin).
For `COC1C=COC2(C)Oc3c(C)c(O)c4c(c3C2=O)C2=NC3(CCN(CC(C)C)CC3)NC2=C(NC(=O)C(C)=CC=CC(C)C(O)C(C)C(O)C(C)C(OC(=O)c2cncnc2)C1C)C4=O` (stereo not shown), the intracellular/extracellular ratio was 25 (THP-1 derived macrophages; baseline: intracellular over extracellular).
`CC(=O)N[C@H](C(=O)N[C@H](C(=O)N[C@@H](CCCNC(=N)N)C(=O)N1Cc2ccccc2C[C@H]1C(=O)N[C@@H](Cc1ccccc1)C(N)=O)C1CCCCC1)C(C)C` gave a cytokine level of under 0.2 pg/mL (human PBMC; Bio-Plex multiplex, measured: IL-5; 250 µg/mL, 24 h).
With `CC(=O)[O-].F[P-](F)(F)(F)(F)F.[Co+2].c1ccc(CN2CCCN3CCN(CCCN(Cc4ccccc4)CC3)CC2)cc1` the IC90 was over 15 µM (THP-1; cytotoxicity).
The EC50 of `OC[C@H]1O[C@H](OCCCCCCCCCCC(F)(F)C(F)(F)C(F)(F)C(F)(F)C(F)(F)C(F)(F)C(F)(F)C(F)(F)F)[C@H](O)[C@@H](O)[C@@H]1O` is reported as over 250 µM (B16-F10; cytotoxicity, MTT; 24 h).
`[99Tc+].[C-]#[N+]CC(C)(C)OC.[C-]#[N+]CC(C)(C)OC.[C-]#[N+]CC(C)(C)OC.[C-]#[N+]CC(C)(C)OC.[C-]#[N+]CC(C)(C)OC.[C-]#[N+]CC(C)(C)OC` gave a total efflux of 64 ± 8.2% (rat sandwich-cultured hepatocytes; 20 min).
For `CC(=O)[O-].CN(C)C=O.F[P-](F)(F)(F)(F)F.[Co+2].c1ccc(CN2CCN3CCCN(CC2)CCN(Cc2ccccc2)CC3)cc1`, the IC50 was over 10 µM (THP-1; cell growth or viability).
`OC[C@H]1O[C@@H](n2cnc3c(O)ncnc32)[C@H](F)[C@@H]1O` gave a CC50 of over 250 µM (iCell cardiomyocytes; sulforhodamine B; 11 days, galactose medium).
The CC50 of `Cc1cc(C#N)cc(C)c1Oc1nc(NC2CCN(Cc3ccc(S(C)(=O)=O)cc3)CC2)nc2ncccc12` is reported as 40 µM (TZM-bl; cell growth or viability, XTT).
`COc1cc2c(OC3OCC(OC)C(OC)C3OC(=O)c3ccc(Br)cc3)c3c(c(-c4ccc5c(c4)OCO5)c2cc1OC)C(=O)OC3` (stereo not shown): cytotoxicity “not toxic” (FaDu, CAL-27 and Ca9-22; MTT; concentration not given, 48 h).
The CLint of `C=CC(=O)Nc1cc(Nc2ncnc(Nc3ccccc3C(C)(C)O)n2)c(OC)cc1N(C)CCN(C)C` is reported as 34 (µL/min)/(10⁶ cells) (human hepatocytes).
`COc1ccc(S(=O)(=O)NCc2c[nH]nc2-c2cccs2)cc1` has a growth inhibition of about 6% (HCT-8; 10 µM, 24 h).
`CC(C)=C1CC[C@]2(COC(=O)c3ccccc3)[C@@H](OC(=O)c3ccccc3)/C=C(\C)CC[C@@H]3O[C@@]3(C)C[C@@H](OC(=O)c3cccnc3)[C@@H]12` gave a viability of 87.7% (HepG2; cell growth or viability, CCK-8; 40 µM, 24 h).
The cell density of `CC/C(=C(\c1ccc(O)cc1)c1ccc(OCCN(C)CCOCCOCCOCCOCCOCCN(C)CCOc2ccc(/C(=C(/CC)c3ccccc3)c3ccc(O)cc3)cc2)cc1)c1ccccc1` is reported as 15% (U2OS transfected with ERβ; 10 µM, cytotoxicity).
`CC1=CC(c2ccc[nH]2)=NC1=CNC12CC3CC(CC(C3)C1)C2` gave an IC50 of 6.9 µM (HepG2; cell growth or viability, resazurin).
For `O=c1[nH]cc(C(c2cccc(Cl)c2)c2c[nH]c(=O)[nH]c2=O)c(=O)[nH]1`, cytotoxicity read “not toxic” (Ba/F3; 1 µg/mL).

A few entries again:
The EC50 of `OC[C@H]1O[C@H](OCCCCCCCCCCC(F)(F)C(F)(F)C(F)(F)C(F)(F)C(F)(F)C(F)(F)C(F)(F)C(F)(F)F)[C@H](O)[C@@H](O)[C@@H]1O` is reported as over 250 µM (B16-F10; cytotoxicity, MTT; 24 h).
With `CC(=O)[O-].F[P-](F)(F)(F)(F)F.[Co+2].c1ccc(CN2CCCN3CCN(CCCN(Cc4ccccc4)CC3)CC2)cc1` the IC90 was over 15 µM (THP-1; cytotoxicity).
